# Assay results gathered from unrelated publications.
# Each numbered part is a random draw from the data of one study; scales do not carry over between parts. Substitutions count along the parent as printed.

# Sample 1
# Target: Interferon regulatory factor 7, full length, phosphomimetic (IRF7, Homo sapiens, UniProt Q92985, residues 1-503, S471D/S472D/S475D/S476D/S477D/S483D/S484D/S487D)
# UniProt Q92985, sequence (whole entry, unmodified, looked up): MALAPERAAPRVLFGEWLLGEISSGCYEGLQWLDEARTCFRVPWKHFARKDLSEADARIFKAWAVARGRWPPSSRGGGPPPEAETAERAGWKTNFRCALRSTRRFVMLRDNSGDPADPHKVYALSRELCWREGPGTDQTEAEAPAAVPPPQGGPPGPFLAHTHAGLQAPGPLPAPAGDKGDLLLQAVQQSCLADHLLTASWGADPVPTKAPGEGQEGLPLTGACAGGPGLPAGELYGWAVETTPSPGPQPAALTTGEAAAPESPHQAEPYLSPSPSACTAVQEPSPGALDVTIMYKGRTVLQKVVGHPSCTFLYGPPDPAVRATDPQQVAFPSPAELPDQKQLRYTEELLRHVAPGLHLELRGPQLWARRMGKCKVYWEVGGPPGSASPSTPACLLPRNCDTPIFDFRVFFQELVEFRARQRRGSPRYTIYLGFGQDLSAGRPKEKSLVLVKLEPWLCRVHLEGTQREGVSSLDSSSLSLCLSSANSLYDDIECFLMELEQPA
# Technique: protein-binding microarray
# Molecule type: double-stranded DNA, one strand shown
# Matrix: in vitro
# Concentration: 2200 nM top
# Notes: 60-bp whole probe
# Added: salmon DNA 0.4 mg/ml
# Baseline: random background probes
# Direction: higher = stronger binding
# Shared flanks, not repeated: GCCTAGCAC … GTCTTGATTCGCTTGACGCTGCTG
Sequence,fitted relative affinity [z-score]
TTAGGTCTCGGTCTCGGTAAGTGCTAG,0.622
TTCCTTATTGCTTCCTCTTTGTGCTAG,3.78
GGTGGTGATGGTGAGTAAGAGTGCTAG,-0.71
GACGGGCTGCTTCTCCTGACGTGCTAG,-0.363
TTAGATATCAGACTGGATTTGTGCTAG,-0.159
GACGGAATCGACTATCGGGACGTGCTA,0.111
GACGGTCTCCTTCTCGTGACGTGCTAG,0.854
GACAATATCAGTATCGAGACGTGCTAG,0.338
TCAATACTCGTTTACATACTGTGCTAG,1.31
GACGGTTCCGGTTTCGAGACGTGCTAG,5.04
TTAGGTTTCGACACTGGGGTAGTGCTA,2.27
GACGGATTGGACTATCGGGACGTGCTA,-0.0557
TTAGATCTCGGTTTCGGTTAGTGCTAG,6.63
GACGCTATCGGACTGGGGACGTGCTAG,-0.109
TCATTTTTCTGATTGAAACTGTGCTAG,3.27
TCATCTCACGCATCTGAAACTGTGCTA,1.04
AAATATATACAAACTAAGGATGTGCTA,-0.812
TCATTTTTATTTATAAAACTGTGCTAG,0.643
GACGTTTTCGGGACTGGAGACGTGCTA,3.2
TTAGGTATCGACACTGGATTAGTGCTA,0.0303
GTAGGTATCCTTCTCCTTTAGTGCTAG,1.32
GACGGACTGGACTATCCGGACGTGCTA,-0.53
TCAGATTACATATATGTTACTGTGCTA,0.671
GACGGACTGGACTATCGGGACGTGCTA,-0.723

# Sample 2
# Target: RNA binding protein fox-1 homolog 2, RRM domain, GST-SBP tag (RBFOX2, Homo sapiens, UniProt O43251-10, residues 100-194)
# Technique: RNA Bind-n-Seq
# Molecule type: RNA
# Matrix: in vitro
# Concentration: 365 nM
# Notes: natural RNA segment, single round, ends assumed
# Baseline: no-protein control
# Direction: higher = stronger binding
# Residues (chain): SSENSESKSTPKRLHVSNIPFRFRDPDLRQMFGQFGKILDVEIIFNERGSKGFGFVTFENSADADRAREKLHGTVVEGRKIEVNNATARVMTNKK
Sequence,RBNS enrichment (R)
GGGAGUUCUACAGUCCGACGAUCCUGUGGCCCUGAUUUGUUCAGAGCCCAUUCUCCCUUGCCUCCCCUUUUGAGACUGGAGCCAACCCUUUUGGAGAGAGGACCUGCCCACCUUUGAGAUCAGCAGGGGGCUCUGGAAUUCUCGGGUGCCAA,0.552
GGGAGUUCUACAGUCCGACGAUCGUGACAAACAUGCAAUGUGCUGUAAAAACUCAAUACAGUUCAAAUAAAAUCUCUAUAUUAGUGCUGCUUUGUUGGGUCUUUUUAUUUCUUACUGGUAUUGGGAUUGAGUCUGGAAUUCUCGGGUGCCAA,0.602
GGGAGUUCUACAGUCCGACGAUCCAUGUAAGUGUUAAGUUUUUAAUCUGGGAGCAGGGCAUAGGAAGAAAAUGUCAGUAGUGCUAAUGCAUUUUGCACUAGAACGCUUCGGGAAAAUAUUCAUGCUUGCCAUCUGGAAUUCUCGGGUGCCAA,0.976
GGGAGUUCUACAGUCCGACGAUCAACUCUGAAGUAUCAAGAGUUUUAACUACUUGUCUCUCUUUUGCUAAGAAGGGAUUUUUGAAUAUGCUAUCUACCUGGAAUCUCUCUCUCAACAAAAGGUAUAUGCCUUCUGGAAUUCUCGGGUGCCAA,0.475
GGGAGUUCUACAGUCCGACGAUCCCCCCUCUUUGUAUUCUCUUUGUAUUUUUCCCCUUCUUAAAAUUUCUUUUUCUGCAAUGAAGACAGAAAGAAGGCUCUGGGGUGAUGCGUUUGGCAUUUGUGUUGAGCUUUGGAAUUCUCGGGUGCCAA,0.61
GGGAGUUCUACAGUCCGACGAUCUCAUUUUUAGGAGGUGUGCAUGGAUGCAAUAUAUGAAAAUGGGACAUUCUGGAACUGCUGGUCAGGGGACUUUGUCGCCCUGUGCACUAAAAGGGCCAGAUUUUCAGCAGUGGAAUUCUCGGGUGCCAA,6.26
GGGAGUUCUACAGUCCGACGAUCUCUAAAUGAUACAUUGGAAUUGUGCCUUUUCUACCACACUGGAUUAAAUAAACUUGUCAAAAUAUGGUUUUGUCAUUUUCUGAGACACUUGGUAAUUUGCUGUUCUUUCUUGGAAUUCUCGGGUGCCAA,0.453
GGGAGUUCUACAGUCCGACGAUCAAGCAGCUACGACCCAUUGCCCUCCUACCUGCUUCGCUACUGGUCCAUGGUACAGACUGUUCCAGAUCACCAAGAAAGGUACUUUCAGGAUCCCAGUGCCUAGCACUGGGUGGAAUUCUCGGGUGCCAA,0.365
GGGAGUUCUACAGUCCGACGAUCUACUGUGAACAUUCGAAUGCAUCUGUGGCCUUCGCCUCCCCAGCUGCCCUGUCCCUCCUUGGAAACAGCAGCUUUGCCGAGGGCUCCCCAGCUUCCAUCUCAGGAGACCAUGGAAUUCUCGGGUGCCAA,0.466
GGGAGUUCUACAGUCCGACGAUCUGUGCUCCUAGGCAUCCAGCACAGGUUCUGGCAGGGCACCCCUGCUGGGGUUGGGGGCUGGUCUGUGCAUAAUCCUGGACUGUGAUGGGAACAGCCCAGUGCAGUCUAAAUGGAAUUCUCGGGUGCCAA,0.367
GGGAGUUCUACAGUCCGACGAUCCCUGUGAUUUAAAGUUUUACAAAAAGCAGAGCUUUUUCCUAAGUUACUUUUCAGUUAGGUAACUGUGUGAUCCAGUUCUUCCAGCUGCUUCUAUAAUGAGGCACAUAUUAUGGAAUUCUCGGGUGCCAA,0.424
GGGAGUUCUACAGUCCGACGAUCCCCUGCCCCUUGCCCAGGGCCAGUGCCAUGGGGAAGGGGCUUGUGGGGAGGGGACCCAUGAAUCCUGACCACUCUUGAACCCAGAAGGAGGACUUUGGGCCAAUUUCGGAUGGAAUUCUCGGGUGCCAA,0.123

# Sample 3
# Target: CRIPT, C-terminal peptide
# Technique: DHFR complementation, deep sequencing
# Matrix: yeast
# Notes: single substitutions, model-inferred values
# Baseline: wild type
# Direction: higher = weaker binding
# Starting sequence: ERBIN, PDZ domain 1 (human); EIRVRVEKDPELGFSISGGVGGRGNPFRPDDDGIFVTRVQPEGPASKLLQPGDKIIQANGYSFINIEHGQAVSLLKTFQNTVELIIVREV; partner TKNYKQTSV
Change,binding free energy change
T77E,0.0904 kcal/mol
D32M,0.248 kcal/mol
A71H,1.31 kcal/mol
I56C,0.176 kcal/mol
V82C,0.298 kcal/mol
E83L,0.158 kcal/mol
S15G,1.27 kcal/mol
R38M,0.0178 kcal/mol
S17M,0.633 kcal/mol
F14Q,0.565 kcal/mol
P41R,0.251 kcal/mol
V87H,0.0192 kcal/mol
R28V,-0.115 kcal/mol
F78K,0.255 kcal/mol
K8F,1.26 kcal/mol
S46N,0.0269 kcal/mol
K54I,0.785 kcal/mol
G33W,0.984 kcal/mol
F27W,0.629 kcal/mol
G52M,0.67 kcal/mol
L12A,0.511 kcal/mol

# Sample 4
# Target: Fragile X messenger ribonucleoprotein 1, C-terminal low-complexity region (Fmr1, Mus musculus, UniProt P35922)
# Technique: RNA Bind-n-Seq
# Molecule type: RNA
# Matrix: in vitro
# Concentration: 200 nM
# Notes: whole 134-nt RNA, ends assumed
# Added: 150 mM LiCl
# Baseline: input library
# Direction: higher = stronger binding
# Each molecule: 7-deaza-guanosine replaces G
Sequence,log2 enrichment
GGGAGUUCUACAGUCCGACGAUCAGUCCUGUGCUACACAUCGUAUGUACCGAAUCGGAAAAAGGGGAAAAAGGAAAAAGGGAAAGUAUUAUGUUACGCCGUUCGGAUCUGCACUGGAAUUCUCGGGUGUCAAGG,-0.639
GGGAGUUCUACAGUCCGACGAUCAAGUCCUGUGCUACACAUCGUAUGUACCGAAUCGGGGCCCGGGCCCGGGGCCCGGGGAAAGUAUUAUGUUACGCCGUUCGGAUCUGCACUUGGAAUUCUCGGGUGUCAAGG,-2.32
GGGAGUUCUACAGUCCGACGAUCGUCCUGUGCUACACAUCGUAUGUACCGAAUCAAAUUUUUAAACCCCCCCAAACCCAAAAAAGUAUUAUGUUACGCCGUUCGGAUCUGCACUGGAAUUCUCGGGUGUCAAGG,1.3
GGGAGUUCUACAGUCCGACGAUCUCUCCCAUCAAAGGACGUGCACAGCCUUAUGAUCCCAAUUUUUACGAUGAAACCUAUGAUUAUGGUGGUUUUACAAUGAUGUUUGAUGACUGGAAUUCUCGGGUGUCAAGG,0.928
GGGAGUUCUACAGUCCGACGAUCCCUCAAGUCCUGUGCUACACAUCGUAUGUACCGAAUCGGUUGGGUUGGUUGGGAAAGUAUUAUGUUACGCCGUUCGGAUCUGCACUUCCAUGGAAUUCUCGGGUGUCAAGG,-0.476
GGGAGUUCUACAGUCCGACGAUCUGGGAGGUGGAUUUUGUUUAUUUUUUUAGCUCAUUUCCAGGGGUGGAAAUUUUUUUUUAAUAUGUGUCAUGAAUAAAGUUGUUUUUGAAAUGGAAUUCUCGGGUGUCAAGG,0.391
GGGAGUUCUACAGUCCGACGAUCCACAGACCACACGCACCCACACAGACACAGAGGGAAGGGGUUGGGAUGGGGACAGGGUGCACAGCAGGGCGGGGUAGGACCCCAGCCCCUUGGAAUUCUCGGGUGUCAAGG,1.09
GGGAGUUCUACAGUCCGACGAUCGCAGGACGUAAAAACAAAUGGAAAUGCUUCGGAUAGUGGCAGGGGUGGGGGUUGCUAAGGAAAGGGUGGGAUGGGAGUGGGUAAAGAGUUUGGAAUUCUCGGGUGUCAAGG,1.84
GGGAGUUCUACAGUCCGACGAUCAGUCCUGUGCUACACAUCGUAUGUACCGAAUCGGUUUUUGGUUUUUGGAAAAAAAGGAAAGUAUUAUGUUACGCCGUUCGGAUCUGCACUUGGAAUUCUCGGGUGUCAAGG,-2.58
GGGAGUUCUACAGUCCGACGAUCUCAAGUCCUGUGCUACACAUCGUAUGUACCGAAUCGGUUUGGGGUUUGGUUUGGGAAAGUAUUAUGUUACGCCGUUCGGAUCUGCACUUCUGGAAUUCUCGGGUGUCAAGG,-1.99
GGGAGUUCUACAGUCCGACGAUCCCUCAAGUCCUGUGCUACACAUCGUAUGUACCGAAUCGGGGUGGGGUGGUGGGAAAGUAUUAUGUUACGCCGUUCGGAUCUGCACUUCCAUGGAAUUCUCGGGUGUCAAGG,-0.836

# Repeated from above (sample 4):
Sequence,log2 enrichment
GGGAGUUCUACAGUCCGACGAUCCCUCAAGUCCUGUGCUACACAUCGUAUGUACCGAAUCGGGGUGGGGUGGUGGGAAAGUAUUAUGUUACGCCGUUCGGAUCUGCACUUCCAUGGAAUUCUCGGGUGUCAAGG,-0.836
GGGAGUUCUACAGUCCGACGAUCCCUCAAGUCCUGUGCUACACAUCGUAUGUACCGAAUCGGUUGGGUUGGUUGGGAAAGUAUUAUGUUACGCCGUUCGGAUCUGCACUUCCAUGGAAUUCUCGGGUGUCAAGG,-0.476
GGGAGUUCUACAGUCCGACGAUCAGUCCUGUGCUACACAUCGUAUGUACCGAAUCGGUUUUUGGUUUUUGGAAAAAAAGGAAAGUAUUAUGUUACGCCGUUCGGAUCUGCACUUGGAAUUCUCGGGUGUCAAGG,-2.58
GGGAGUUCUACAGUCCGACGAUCUCUCCCAUCAAAGGACGUGCACAGCCUUAUGAUCCCAAUUUUUACGAUGAAACCUAUGAUUAUGGUGGUUUUACAAUGAUGUUUGAUGACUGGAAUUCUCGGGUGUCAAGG,0.928
